Results of several laboratories.
Protocols differ between the studies behind these lines. Numbers after ± are the reported error. Values after ≈ are worked out from the molar mass of the structure shown.

The IC50 of C=C1C[C@](OC)([C@H](O)C(=O)NC[C@@H]2C[C@@H](OC)C(C)(C)[C@@H](C[C@@H](COC)OC)O2)O[C@H](C)[C@@H]1C is reported as 0.007 ± 0.0006 µM (U-87 MG; cell viability, sulforhodamine B; 72 h, 37 °C, together with: H2O2 100 µM).
The motility inhibition of F[P-](F)(F)(F)(F)F.OC(Cn1cncn1)(Cn1cc(-[c-]2cccc2)nn1)c1ccc(F)cc1F.[Co+3].c1cc[cH-]c1 (racemic) is reported as 30% (Trichuris muris; Worminator; adult males and females; 100 µM, day 0).
For COC1CN([C@H]2CC[C@H]([C@@]3(C)Oc4c(Cl)cc(C(=O)NCc5c(SC)cc(C)[nH]c5=O)c(C)c4O3)CC2)C1, “log2 fold change” read 1.31 (RNA-seq, refers to: MARVELD2; human, whole blood; dose not given, 24 h; reference: pretreatment baseline).
The IC50 of COc1cc(C(=O)N/N=C/c2cccc3ccccc23)cc(OC)c1OC is reported as 0.138 µM (P12-Ichikawa; cell growth or viability, MTT; 48 h).
For CNCc1ccc2c(c1)N(C(=O)OCc1c(F)c(F)c(F)c(F)c1F)[C@H](CNC(=N)N)[C@H]2NC(=O)C(=O)Nc1ccc(Cl)c(F)c1, the IC50 was 0.502 µM (Human immunodeficiency virus 1; viral infection, Env pseudovirus; TZM-bl, 231965.c01 clade D).
C[C@H](Nc1ncnc(N)c1C#N)c1c(-c2ccccc2)[nH]c2c(Cl)cccc2c1=O gave an IC50 of 0.85 to 37 µM (primary CLL cells; cell viability, CellTiter-Glo; 24 h, across sample A patient samples).
For CC(=O)NCCN(CC(=O)NCCN(CC(=O)NCCN(CC(=O)NCCC(N)=O)C(=O)[C@@H](N)CCCNC(=N)N)C(=O)[C@@H](N)CCCNC(=N)N)C(=O)[C@@H](N)Cc1ccccc1, “binding entropy term TΔS°” read -24.3 ± 0.5 kJ/mol (HIV-1 TAR RNA; concentration not given, 25 °C).
CNCc1ccc2c(c1)C[C@H](CNC(=N)N)[C@H]2NC(=O)C(=O)Nc1ccc(Cl)c(F)c1 has an IC80 of 0.624 µM (Human immunodeficiency virus 1; viral infection, Env pseudovirus; TZM-bl, REJO4541.67 clade B).
Under “binding entropy term TΔS°”, CC(=O)NCCN(CCC(=O)NCCN(CCC(=O)NCCN(CCC(=O)NCCC(N)=O)C(=O)[C@@H](N)CCCCN)C(=O)[C@@H](N)Cc1ccccc1)C(=O)[C@@H](N)Cc1ccccc1 is recorded as -14.2 ± 0.3 kJ/mol (HIV-1 TAR RNA; concentration not given, 25 °C).
For CCCOC(=O)N1c2cc(CNC)ccc2[C@H](NC(=O)C(=O)Nc2ccc(Cl)c(F)c2)[C@H]1CNC(=N)N, the IC80 was 0.326 µM (Human immunodeficiency virus 1; viral infection, Env pseudovirus; TZM-bl, ZM197M.PB7 clade C).
O=[N+]([O-])c1cccc(S(=O)(=O)NC[C@@H](O)[C@@H]2CCc3cc(F)ccc3O2)c1 has an MIC of 14.1 ± 0.72 mg/L (≈ 35.5 µM) (Aspergillus niger; poison plate technique).
For CC[C@H](C)[C@H](NC(=O)[C@H](Cc1ccccc1)NC(=O)[C@@H](NC(=O)[C@@H](NC(=O)[C@H](CC(C)C)NC(=O)[C@H](CCCCN)NC(=O)[C@@H](N)CCCCN)[C@@H](C)CC)[C@@H](C)O)C(=O)N[C@@H](CC(C)C)C(=O)N[C@@H](CCCCN)C(=O)N[C@@H](CCCCN)C(=O)N[C@H](C(=O)N[C@@H](CCCNC(=N)N)C(=O)N[C@@H](CCC(=O)O)C(=O)N[C@@H](CCCCN)C(=O)N[C@@H](CCCCN)C(=O)N[C@@H](CCCCN)C(=O)N[C@@H](CCC(=O)O)C(=O)N[C@@H](CS)C(=O)N[C@@H](CC(C)C)C(=O)N[C@H](C(=O)O)C(C)C)[C@@H](C)O, “unblocking rate constant” read 742 s⁻¹ (TTX-sensitive sodium channel; open-channel blocker, kinetic model fit; mouse hippocampal CA3 neurons; 200 µM intracellular, membrane potential -10 mV).

For quick reference, copied from above:
O=[N+]([O-])c1cccc(S(=O)(=O)NC[C@@H](O)[C@@H]2CCc3cc(F)ccc3O2)c1 has an MIC of 14.1 ± 0.72 mg/L (≈ 35.5 µM) (Aspergillus niger; poison plate technique).
